Assay results gathered from unrelated publications.
A part holds a random share of what one study measured. Positions count from the first letter of the parent shown.

Set 1
Target: RNA binding protein fox-1 homolog 2, RRM domain, GST-SBP tag (RBFOX2, Homo sapiens, UniProt O43251-10, residues 100-194)
Technique: RNA Bind-n-Seq
Form: RNA
Medium: in vitro
Tested at: 365 nM
Notes: natural RNA segment, single round, ends assumed
Reference: no-protein control
Reading: higher = stronger binding
Construct (chain): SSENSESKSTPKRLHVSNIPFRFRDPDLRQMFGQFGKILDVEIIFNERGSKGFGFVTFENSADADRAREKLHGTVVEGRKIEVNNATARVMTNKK
`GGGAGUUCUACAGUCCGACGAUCGAGACCCAGCCGCUGACAGUCCCUGGGGCUUGCCUUCUUUGCCAAGCCAAUGGGAAACCAAAAGGAGCUCACUUCCUGUUCUUCCUAGCUCCCCUCCCUGCCGCUGUGCUUGGAAUUCUCGGGUGCCAA`: “RBNS enrichment (R)” 0.363.
`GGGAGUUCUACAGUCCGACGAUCAGGGGGCAUUUUGAUGUGGUCCUCCUUGCUUCUGGAGGGACUUGGUUCCCUUUAGAAAACCUGCCCUGGGAAAAGACUUCUUGGUUUUGAGGAAGAUCCUUGGUUAGCGAUGGAAUUCUCGGGUGCCAA`: “RBNS enrichment (R)” 0.788.
`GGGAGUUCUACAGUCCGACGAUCUCUCCUCCCUUUCAGCAUCCUUUGGGGAACCUCCAGCCCAAGGCACUGUUAGGCUUGGGCAUUAGCCUGGCCCAAGAGAUGCCACUGGGGACUAGAGGACAGAAGGGGACUGGAAUUCUCGGGUGCCAA`: “RBNS enrichment (R)” 0.529.
Under “RBNS enrichment (R)”, `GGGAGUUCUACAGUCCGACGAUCACUCUGCAGUGUUGAUUUUUUAAAGUAGUUUUCUGCAAUGAGCUUUUAGUCUAAGGAAAGCAUAGAUGAAGCAAUACUUUCCUUCUUUGAUGAAAAGCCUAGAAAUUAGUUGGAAUUCUCGGGUGCCAA` is recorded as 0.766.
`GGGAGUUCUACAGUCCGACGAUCAUUAUCACAGCGCAAUCAUUGUCUACACAACAUGUACUCUCAACGCCUGGGUUACAUAGGAAAUGCACCCUGAGGUUUUAAUAAAAGCCCCUAUGGCUAUAACUUUAAAUUGGAAUUCUCGGGUGCCAA`: “RBNS enrichment (R)” 0.525.
`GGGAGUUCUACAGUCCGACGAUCUGAAUCUAACAGACAUUUGAUUUAAUGUACACUCCCUUUUGCUUAUAGUGUGCAUUUUUUUUGGAGGUCAUUCAAAUUUUCCCUCUUCUGUGAUAGCUGUAGUUUCUUUCUGGAAUUCUCGGGUGCCAA` — result for “RBNS enrichment (R)”: 1.08.
`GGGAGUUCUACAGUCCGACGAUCUCAUCUUGCCAGAACAAGCUCUCAGCAGCCCAGGAACAGUCCAUGGCCUUCUCAGGCCUGGCCCUUUUCAUCAGAUACAAGGGCCAGGAGACCAGACUCUUGCUUCUGAUUGGAAUUCUCGGGUGCCAA` — result for “RBNS enrichment (R)”: 0.271.
For `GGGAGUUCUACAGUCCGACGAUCGUCCAUCACCAGGCCAGCUUCUCCUCAGCCCUCUGUUCUUGAAGGGGUGUGCUGGGGCAAGCAUCCUGAGACUCCUGUCUCCUGCAGAGGCCCUCCUUCCUGAAGACAGUUGGAAUUCUCGGGUGCCAA`, “RBNS enrichment (R)” read 0.261.

Set 2
Target: Histone acetyltransferase KAT6A, winged helix 2, GST fusion (KAT6A, Homo sapiens, UniProt Q92794, residues 85-181)
Technique: protein binding microarray
Form: double-stranded DNA, one strand shown
Medium: in vitro
Tested at: not given
Notes: 8-mer, flanks averaged, mean of 2 arrays, mostly near background
Reference: not given
Reading: higher = stronger binding
Residues (chain): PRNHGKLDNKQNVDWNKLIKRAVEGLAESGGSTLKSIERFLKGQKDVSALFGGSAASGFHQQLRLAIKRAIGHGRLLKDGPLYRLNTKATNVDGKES
`ATCTCATA` gave an E-score of 0.14.
With `AAAAGCTC` the E-score was 0.0987.
With `CCCCCGGG` the E-score was 0.154.
For `CCGATTGA`, the E-score was -0.0578.
`AGTACTTA` gave an E-score of -0.169.
`ATGCACCC` has an E-score of 0.122.
`AGTCCACA` gave an E-score of 0.0416.
`CCGGAGAA` gave an E-score of 0.0329.
With `CCGATTCC` the E-score was 0.0183.
`CTGGTAAA` has an E-score of -0.127.
The E-score of `CCTAGAAG` is reported as -0.0466.
For `ATGGCCGG`, the E-score was 0.0462.
The E-score of `GTTTGCTA` is reported as 0.143.
`ACCGGGCG` gave an E-score of 0.136.
`AACGCACG` has an E-score of 0.135.
`CACCACAA` has an E-score of 0.0667.
`ACGTAGAA` gave an E-score of -0.104.
For `ACAATTAA`, the E-score was 0.0343.
For `CATTTTCC`, the E-score was -0.0162.
`GCGTGCAC` has an E-score of 0.103.
The E-score of `CTTAGCTA` is reported as -0.174.
The E-score of `AACATGAG` is reported as -0.102.
The E-score of `CAGAACGG` is reported as -0.00319.
With `CAATACGG` the E-score was -0.113.
The E-score of `AGCGTTTC` is reported as -0.0862.

Set 3
Target: ABI1, truncated, D143A, DHFR fusion (Arabidopsis thaliana)
Technique: DHFR PCA, deep sequencing
Medium: yeast
Notes: methotrexate growth selection, single substitutions
Together with: (+)-ABA 2500 µM
Reference: wild-type fitted maximum
Reading: higher = stronger binding
Starting sequence: PYL1, truncated, DHFR fusion (Arabidopsis thaliana); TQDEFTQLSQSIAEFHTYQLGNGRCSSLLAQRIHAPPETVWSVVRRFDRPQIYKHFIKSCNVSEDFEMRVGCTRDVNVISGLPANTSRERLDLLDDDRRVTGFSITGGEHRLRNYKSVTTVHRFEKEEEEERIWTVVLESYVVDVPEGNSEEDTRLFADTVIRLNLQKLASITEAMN
Under “relative binding score”, `I57Y` is recorded as 77%.
`N22M`: “relative binding score” 100%.
Under “relative binding score”, `R98F` is recorded as 100%.
For `V136F`, “relative binding score” read 109%.
`L29V` — result for “relative binding score”: 99.5%.
For `T173E`, “relative binding score” read 53.2%.
`S27R` — result for “relative binding score”: 93.7%.
`R163M` — result for “relative binding score”: 86.3%.
For `Q167V`, “relative binding score” read 94.8%.

Set 4
Target: CCNB1, cyclin fold, Cln2 fusion (human)
Technique: yeast growth competition, sequencing
Medium: yeast
Notes: weak parent motif
Reference: not given
Reading: higher = stronger binding
Starting sequence: REV3L docking peptide (human); PPVIIKYIIINRF
For `PPVIAKYIIINRF [I5A]`, “normalised enrichment score” read 0.214.
For `PPVIIAYIIINRF [K6A]`, “normalised enrichment score” read 0.0952.
`PPVIIKYAIINRF [I8A]`: “normalised enrichment score” 0.166.
`PPVAIKYIIINRF [I4A]`: “normalised enrichment score” -0.125.
`PPVIIKAIIINRF [Y7A]` — result for “normalised enrichment score”: 0.155.
For `PPAIIKYIIINRF [V3A]`, “normalised enrichment score” read 0.0565.

Set 5
Target: UBE2C UBC core domain (UniProt O00762)
Technique: yeast two-hybrid
Medium: yeast
Notes: mostly zero background
Reference: not given
Reading: higher = stronger interaction
B1: RNF121 RING domain (UniProt Q9H920); chain MPTKHLSDSVCAVCGQQIFVDVSEEGIIENTYRLSCNHVFHEFCIRGWCIVGKKQTCPYCKEKVDLKRMFS
B2: MDM4 RING domain (UniProt O15151); chain MEDCQNLLKPCSLCEKRPRDGNIIHGRTGHLVTCFHCARRLKKAGASCPICKKEIQLVIKVF
B3: ZMIZ2 RING domain (UniProt Q8NF64); chain GTIPGTPGPNGEDGVEQTAIKVSLKCPITFRRIQLPARGHDCRHIQCFDLESYLQLNCERGTWRCPVCNKTALLEGLEVDQYMLGILIYIQNSDYEEITIDPTCSWK
Target sequence (chain): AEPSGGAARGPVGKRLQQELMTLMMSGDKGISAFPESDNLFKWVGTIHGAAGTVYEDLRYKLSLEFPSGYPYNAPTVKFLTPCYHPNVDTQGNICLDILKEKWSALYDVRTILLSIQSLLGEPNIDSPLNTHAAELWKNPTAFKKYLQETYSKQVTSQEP
Under “lacZ reporter activity”, `AVPSGLEENLCKICMDSPIDCVLLECGHMVTCTKCGKRMNECPICRQYVIRAVHVF (RFFL RING domain (UniProt Q8WZ73))` is recorded as 0.
Under “lacZ reporter activity”, `B1 (RNF121 RING domain)` is recorded as 0.
Under “lacZ reporter activity”, `B2 (MDM4 RING domain)` is recorded as 0.
Under “lacZ reporter activity”, `PEDRESLKSACVVCLSSFKSCVFLECGHVCSCTECYRALPEPKKCPICRQAITRVIPLY (MUL1 RING domain (UniProt Q969V5))` is recorded as 0.
`B3 (ZMIZ2 RING domain)`: “lacZ reporter activity” 0.

Set 6
Target: Myc proto-oncogene protein, bHLH-zipper, MAX partner unstated (MYC, Homo sapiens, UniProt P01106, residues 368-449)
Chain of UniProt P01106 (368-449, looked up): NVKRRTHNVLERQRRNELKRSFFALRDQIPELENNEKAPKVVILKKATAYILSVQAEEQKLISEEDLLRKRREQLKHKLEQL
Technique: protein-binding microarray
Form: double-stranded DNA, one strand shown
Medium: in vitro
Tested at: not given
Notes: k-mer, scored over probes, only values ≥0.25
Reading: higher = stronger binding
The E-score of `ACCGCATG` is reported as 0.474.
`CATGCGGC` gave an E-score of 0.452.
The E-score of `ACACGCGC` is reported as 0.443.
For `CCCCACCA`, the E-score was 0.286.
For `CTGCGTGA`, the E-score was 0.275.
With `CGCCCACC` the E-score was 0.29.
With `GCATGTAA` the E-score was 0.318.
For `CACCATGG`, the E-score was 0.329.
`CCACCCCA` gave an E-score of 0.386.
The E-score of `AGCATGCT` is reported as 0.45.
`CTCATGAC` has an E-score of 0.281.
`ACACGGGA` has an E-score of 0.271.
With `CCGCGCGC` the E-score was 0.35.
The E-score of `CACGTGGC` is reported as 0.495.
The E-score of `CCATGCCG` is reported as 0.429.
For `ATCCGCAT`, the E-score was 0.262.
For `CCATATGG`, the E-score was 0.411.
With `ACGTGCCG` the E-score was 0.429.
